Published values of several laboratories.
Each numbered part is a random draw from the data of one study; scales do not carry over between parts.

Sample 1
Target: Prothrombin, mature alpha-thrombin (F2, Homo sapiens, UniProt P00734)
Technique: aptamer microarray, sandwich
Form: DNA with 2'F-ANA
Medium: in vitro
Tested at: 200 nM
Setting: whole 15-mer aptamer, many near background
Together with: Cy3 exosite-II aptamer, 400 nM
Reading: higher = stronger binding
Oligonucleotide: GGTTGGTGTGGTTGG
For `2'F-ANA at 2 5 6 8 9 11 12 13 14 15`, “mean fluorescence intensity” read 48.8 a.u.
Under “mean fluorescence intensity”, `2'F-ANA at 1 2 4 5 10 11 12` is recorded as 48.6 a.u.
`2'F-ANA at 1 2 4 5 7 8 12 13`: “mean fluorescence intensity” 198 a.u.
Under “mean fluorescence intensity”, `2'F-ANA at 1 2 5 8 10 12 13` is recorded as 45.3 a.u.
Under “mean fluorescence intensity”, `2'F-ANA at 1 3 4 8 10 12 13 14` is recorded as 53.5 a.u.
For `2'F-ANA at 1 5 6 8 11 14`, “mean fluorescence intensity” read 82.7 a.u.
`2'F-ANA at 1 5 6 8 10 13`: “mean fluorescence intensity” 47.9 a.u.
`2'F-ANA at 1 2 5 8 11 15` — result for “mean fluorescence intensity”: 55.7 a.u.
Under “mean fluorescence intensity”, `2'F-ANA at 1 2 6 7 9 14 15` is recorded as 54 a.u.
`2'F-ANA at 1 4 5 6 8 9 11 13`: “mean fluorescence intensity” 48 a.u.
`2'F-ANA at 1 2 3 4 5 7 8 15`: “mean fluorescence intensity” 76.7 a.u.
Under “mean fluorescence intensity”, `2'F-ANA at 1 2 3 4 5 7 11` is recorded as 53.9 a.u.
For `2'F-ANA at 4 7 8 9 10 11 12 13 14`, “mean fluorescence intensity” read 63.6 a.u.
`2'F-ANA at 4 6 12 13 14 15` — result for “mean fluorescence intensity”: 92.6 a.u.
`2'F-ANA at 2 3 4 5 7 9 10 13 15`: “mean fluorescence intensity” 333 a.u.
Under “mean fluorescence intensity”, `2'F-ANA at 2 3 4 6 7 10 11 12 13 14` is recorded as 153 a.u.
For `2'F-ANA at 3 4 5 8 9 10 11 12 14`, “mean fluorescence intensity” read 50.6 a.u.
Under “mean fluorescence intensity”, `2'F-ANA at 4 6 8 11 12 15` is recorded as 428 a.u.
`2'F-ANA at 2 3 5 6 7 8 9 11 13 14` — result for “mean fluorescence intensity”: 63.9 a.u.
Under “mean fluorescence intensity”, `2'F-ANA at 8 10 11 12 13` is recorded as 213 a.u.
For `2'F-ANA at 2 3 4 5 6 7 8 9 10 11 13 15`, “mean fluorescence intensity” read 51.9 a.u.

Sample 2
Target: Histone acetyltransferase KAT6A, both winged helices, GST fusion (KAT6A, Homo sapiens, UniProt Q92794, residues 1-181)
Technique: protein binding microarray
Form: double-stranded DNA, one strand shown
Medium: in vitro
Tested at: not given
Setting: 8-mer, flanks averaged, mean of 2 arrays, mostly near background
Baseline: not given
Reading: higher = stronger binding
Target sequence (chain): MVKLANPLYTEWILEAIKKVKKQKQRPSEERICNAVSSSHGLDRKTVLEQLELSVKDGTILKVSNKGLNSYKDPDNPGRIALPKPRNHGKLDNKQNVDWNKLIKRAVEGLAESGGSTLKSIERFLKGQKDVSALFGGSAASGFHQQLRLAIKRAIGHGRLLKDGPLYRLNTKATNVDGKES
`CCAATCGG` gave an E-score of -0.11.
`AGCACTAG` gave an E-score of -0.188.
For `AAGCGTTA`, the E-score was -0.00413.
With `AAAAGTAG` the E-score was -0.198.
For `CGTTTGAG`, the E-score was -0.0222.
The E-score of `GAATGTGA` is reported as -0.0789.
`CCAGCCTA` has an E-score of -0.127.
For `AGCCCCGC`, the E-score was 0.0952.
With `ACGCGTCT` the E-score was 0.258.
`GAGCTCAA` gave an E-score of 0.0399.
With `ACTGGACC` the E-score was 0.0445.
For `ATTCATGG`, the E-score was -0.0425.
`TGGCAAAA` has an E-score of -0.205.
`GAGGAGAA` has an E-score of -0.137.
The E-score of `CCCTCTAC` is reported as -0.224.
For `AGTCTGTA`, the E-score was -0.0735.
With `ACAAGTGG` the E-score was -0.153.
With `AGCTTGTA` the E-score was -0.175.
`GAGCCCTC` gave an E-score of -0.0244.
`GCTAAGTA` gave an E-score of -0.114.

Sample 3
Target: Sal-like protein 4, full length isoform A (SALL4, Homo sapiens, UniProt Q9UJQ4, residues 1-1053)
Sequence of UniProt Q9UJQ4 (whole entry, looked up): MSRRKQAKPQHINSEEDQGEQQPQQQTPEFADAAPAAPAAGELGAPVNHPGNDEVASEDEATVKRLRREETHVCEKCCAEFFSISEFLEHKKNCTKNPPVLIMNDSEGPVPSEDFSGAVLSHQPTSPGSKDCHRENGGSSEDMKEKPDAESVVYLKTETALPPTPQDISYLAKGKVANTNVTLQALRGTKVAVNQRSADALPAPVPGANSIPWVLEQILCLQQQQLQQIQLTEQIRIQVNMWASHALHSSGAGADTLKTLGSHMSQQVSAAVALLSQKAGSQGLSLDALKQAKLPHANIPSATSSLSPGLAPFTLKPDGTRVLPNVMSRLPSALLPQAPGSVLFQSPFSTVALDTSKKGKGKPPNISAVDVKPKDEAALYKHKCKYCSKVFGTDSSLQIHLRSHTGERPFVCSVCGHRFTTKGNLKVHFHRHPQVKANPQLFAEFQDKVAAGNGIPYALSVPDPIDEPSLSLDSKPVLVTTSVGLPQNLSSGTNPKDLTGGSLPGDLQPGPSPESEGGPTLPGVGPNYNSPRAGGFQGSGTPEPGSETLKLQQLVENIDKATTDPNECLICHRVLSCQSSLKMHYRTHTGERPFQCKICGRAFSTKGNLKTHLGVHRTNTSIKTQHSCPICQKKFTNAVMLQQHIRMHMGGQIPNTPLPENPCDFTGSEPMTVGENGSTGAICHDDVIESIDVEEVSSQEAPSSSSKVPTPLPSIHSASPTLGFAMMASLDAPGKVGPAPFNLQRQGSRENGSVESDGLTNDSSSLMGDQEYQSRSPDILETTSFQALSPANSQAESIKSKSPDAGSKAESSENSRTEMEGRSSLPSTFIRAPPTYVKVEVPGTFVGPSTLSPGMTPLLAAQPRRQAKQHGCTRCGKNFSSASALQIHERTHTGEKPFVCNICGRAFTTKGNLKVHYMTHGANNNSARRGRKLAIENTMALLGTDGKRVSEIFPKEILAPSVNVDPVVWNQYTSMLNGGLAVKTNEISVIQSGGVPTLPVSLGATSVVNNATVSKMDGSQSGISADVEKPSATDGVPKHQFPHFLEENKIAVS
Technique: universal PBM
Form: double-stranded DNA, one strand shown
Medium: in vitro
Tested at: 600 nM
Setting: 8-mer, flanks averaged, mean of replicates
Reading: higher = stronger binding
`CGTTACGC` has an E-score of -9e-05.
`ACGTGCAA` gave an E-score of -0.0424.
The E-score of `CACGGCCC` is reported as -0.23.
For `ACGTTCAT`, the E-score was 0.132.
For `AGAGAGGG`, the E-score was -0.256.
For `AAGCGTGT`, the E-score was 0.0393.
With `CTAGCCAA` the E-score was -0.0416.
The E-score of `CTCTAGCC` is reported as -0.135.
For `ATCGGCTC`, the E-score was -0.248.
With `GACAGCAA` the E-score was 0.105.
The E-score of `CAGGACTA` is reported as -0.108.
The E-score of `CCACCTTA` is reported as -0.00651.
`CGGCCCCC` has an E-score of -0.367.
With `ACTTGAAA` the E-score was 0.117.
`TGTTTGAA` has an E-score of 0.195.
The E-score of `CTACTCTC` is reported as -0.0185.
With `ATTTTGTA` the E-score was 0.275.
The E-score of `GCAACTCA` is reported as -0.121.
`ACGTTCGG` has an E-score of -0.267.

Sample 4
Target: RING finger protein unkempt homolog, zinc fingers 1-6, GST-SBP tag (UNK, Homo sapiens, UniProt Q9C0B0, residues 30-357)
Technique: RNA Bind-n-Seq
Form: RNA
Medium: in vitro
Tested at: not given
Setting: RNA with constant flanks, ends assumed
Baseline: input RNA pool
Reading: higher = stronger binding
Construct (chain): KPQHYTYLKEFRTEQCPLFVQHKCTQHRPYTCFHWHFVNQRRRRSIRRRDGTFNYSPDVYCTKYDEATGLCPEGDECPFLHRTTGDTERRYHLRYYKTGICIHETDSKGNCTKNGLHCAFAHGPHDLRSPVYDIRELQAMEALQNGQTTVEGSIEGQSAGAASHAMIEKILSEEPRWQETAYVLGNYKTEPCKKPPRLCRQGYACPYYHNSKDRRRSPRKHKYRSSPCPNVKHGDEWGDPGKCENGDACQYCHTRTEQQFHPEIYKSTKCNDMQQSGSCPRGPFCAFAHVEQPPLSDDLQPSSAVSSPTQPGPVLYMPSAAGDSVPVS
`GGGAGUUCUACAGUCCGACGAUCAAUUUGUUGUCAGCAAGCAAAUUAUAUAACAAUAUCACCUUUGAAGAACUUGGAGCUCUUUCCGAGAUCCCUGCAGCUAAGGCAGAAAAGAUAGCAUCUCAGAUGAUAACGGAAGGACGCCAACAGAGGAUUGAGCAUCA` gave a bound/input enrichment of 0.398 ratio.
For `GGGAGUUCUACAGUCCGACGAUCCCGGCCCCAGUGCCAUCCAGAAGAAAUCCCCCUGGCGGCAAGUCCAGCCUCGUCUUGGGUCCGCUCUGACUGUCCUGAACGCUGUCGUUCUGUCUGUUUCCUCCAUGCUUGUGAACUGCACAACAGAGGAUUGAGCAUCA`, the bound/input enrichment was 0.151 ratio.
`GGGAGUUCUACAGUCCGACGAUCAUGCUGAUCAAUGGCUAUGCGCUCAAUUGUGUGGUUGGAUCUCAGGGCAUGCCCAAGAGAACCGUUAAUGCAAAAAUUGCUUGUCUUGACUUCAGCCUGCAGAAAACAAAAAUGAAGCUUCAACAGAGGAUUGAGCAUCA` has a bound/input enrichment of 0.0709 ratio.
The bound/input enrichment of `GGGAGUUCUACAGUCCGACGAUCCAAAAGAUCCUGGCUAACUGUUCUUCUCCCUACCAUGUAGAUCUGUUGGGUAUAGCAGACCCCGCGCACUUACUCCUGUUCAAGGAGCACCUCCAUGUCUUCUGGGAUGGACUCCUCUGGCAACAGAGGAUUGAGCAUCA` is reported as 0.2 ratio.
The bound/input enrichment of `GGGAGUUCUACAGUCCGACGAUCCUGCCGACUGCAUUUAGUCUGGUCUCUUAACAGUUGCUUUCCUUGUCUGAUUCCCAAGUUCCGCAUUUUCAAAUUCAGAGUUCACAGAACACUUCUGGGUCUAAGCUUCCUUAAGGGGGACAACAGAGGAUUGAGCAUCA` is reported as 0.272 ratio.

A few entries again (sample 2):
With `ACAAGTGG` the E-score was -0.153.
The E-score of `CCCTCTAC` is reported as -0.224.
`TGGCAAAA` has an E-score of -0.205.
`CCAATCGG` gave an E-score of -0.11.
`GAGGAGAA` has an E-score of -0.137.
For `ATTCATGG`, the E-score was -0.0425.
`GAGCTCAA` gave an E-score of 0.0399.
`CCAGCCTA` has an E-score of -0.127.
